# Measured values pooled from the literature.
# Every numbered part comes from another study and shows a few of its results, in no order.

# Sample 1
# Target: RING finger protein unkempt homolog, zinc fingers 1-6, GST-SBP tag (UNK, Homo sapiens, UniProt Q9C0B0, residues 30-357)
# Chain of UniProt Q9C0B0 (30-357, looked up): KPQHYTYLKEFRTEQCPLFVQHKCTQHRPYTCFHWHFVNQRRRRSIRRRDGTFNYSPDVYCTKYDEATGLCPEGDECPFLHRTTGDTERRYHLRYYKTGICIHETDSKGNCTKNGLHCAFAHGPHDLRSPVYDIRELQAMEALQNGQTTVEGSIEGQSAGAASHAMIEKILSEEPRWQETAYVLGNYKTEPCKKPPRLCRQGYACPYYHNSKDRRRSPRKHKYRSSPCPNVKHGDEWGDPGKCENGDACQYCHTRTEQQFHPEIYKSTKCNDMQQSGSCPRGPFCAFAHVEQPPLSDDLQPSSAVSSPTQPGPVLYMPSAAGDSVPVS
# Technique: RNA Bind-n-Seq
# Molecule type: RNA
# Matrix: in vitro
# Concentration: not given
# Setting: RNA with constant flanks, human and mouse sites, ends assumed
# Relative to: input RNA pool
# Reading: higher = stronger binding
Strand,bound/input enrichment [ratio]
GGGAGUUCUACAGUCCGACGAUCGAACUGGUGGACUACAUUACAAUAAGCAGAGGCUGUCUGACAGAGCAGACUUACCCUGAAGUAGUUAGAAUGGUAUCUUGCAAUAUAUUCAGAACUCUCCCUCCUAGUGACAGCAAUGAACAACAGAGGAUUGAGCAUCA,0.567
GGGAGUUCUACAGUCCGACGAUCGACAUUAUCAAGUUUCUGCAGGAUCACGGUUCAGAUUCGUUUCUUGCAGAGCAUAAAUUACUGGGAAACAUCAAAAAUGUUGCCAAGACUGCUAAUAAGGACCAUUUGGUUAAUGCCUAUCAACAGAGGAUUGAGCAUCA,0.132
GGGAGUUCUACAGUCCGACGAUCCCGCACCUCCUCCACCACCGCCUCCCGCUCCCUGACGACAGGGAAGAUGGAGAGUUGGAAGAAGGUGAAUUGGAAGAUGAUGGGGCAGAGGAGACCCAGGAUACCUCCGGAGGGCCUGAGCAACAGAGGAUUGAGCAUCA,0.111
GGGAGUUCUACAGUCCGACGAUCUCAAUAGAGAAUAUUUUGGAUAAUUUAGAAGAUAUGGAUUUUACUGCAUUUGGUGAUGACGAUGAGAUUCCUCAGGAACUGCUUUUAGGAAAACAUCAGCUUAAUGAACUUGGGAGUGAACAACAGAGGAUUGAGCAUCA,18.5

# Sample 2
# Target: Histone acetyltransferase KAT6A, both winged helices, GST fusion (KAT6A, Homo sapiens, UniProt Q92794, residues 1-181)
# Technique: protein binding microarray
# Molecule type: double-stranded DNA, one strand shown
# Matrix: in vitro
# Concentration: not given
# Setting: 8-mer, flanks averaged, mean of 2 arrays, mostly near background
# Relative to: not given
# Reading: higher = stronger binding
# Residues (chain): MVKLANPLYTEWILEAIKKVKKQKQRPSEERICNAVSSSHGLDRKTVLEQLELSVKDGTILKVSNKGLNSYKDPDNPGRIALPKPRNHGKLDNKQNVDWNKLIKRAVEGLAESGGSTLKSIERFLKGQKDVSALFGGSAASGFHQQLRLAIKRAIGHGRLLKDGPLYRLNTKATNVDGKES
Strand,E-score
AGTGGTAA,-0.145
CGCTAAGA,0.164
TCTTGTCA,-0.00819
TGCCTGAA,-0.107
TCGTGTCA,-0.0178

# Sample 3
# Target: Interferon regulatory factor 7, full length, phosphomimetic (IRF7, Homo sapiens, UniProt Q92985, residues 1-503, S101K/S471D/S472D/S475D/S476D/S477D/S483D/S484D/S487D)
# Technique: protein-binding microarray
# Molecule type: double-stranded DNA, one strand shown
# Matrix: in vitro
# Concentration: 250 nM
# Setting: 60-bp whole probe
# With: salmon DNA 0.4 mg/ml
# Relative to: random background probes
# Reading: higher = stronger binding
# Construct (chain): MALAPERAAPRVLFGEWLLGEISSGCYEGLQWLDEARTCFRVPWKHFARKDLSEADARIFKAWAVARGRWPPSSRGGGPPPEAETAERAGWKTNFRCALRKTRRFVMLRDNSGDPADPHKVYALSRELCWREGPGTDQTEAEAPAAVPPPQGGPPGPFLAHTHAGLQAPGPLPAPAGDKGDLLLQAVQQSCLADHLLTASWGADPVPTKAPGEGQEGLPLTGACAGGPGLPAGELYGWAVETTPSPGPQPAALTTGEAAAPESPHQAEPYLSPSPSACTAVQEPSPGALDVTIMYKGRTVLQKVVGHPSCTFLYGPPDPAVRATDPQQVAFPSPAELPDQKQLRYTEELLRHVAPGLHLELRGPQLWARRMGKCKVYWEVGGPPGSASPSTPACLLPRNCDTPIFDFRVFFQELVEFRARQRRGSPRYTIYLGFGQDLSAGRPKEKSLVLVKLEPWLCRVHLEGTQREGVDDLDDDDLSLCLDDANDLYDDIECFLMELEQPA
Strand,log fluorescence
GCCTAGCACGACGGTTTCGGATTTCGGGACGTGCTAGTCTTGATTCGCTTGACGCTGCTG,10.7 z-score
GCCTAGCACGTGAATATATGTATATATGTGTGCTAGGTCTTGATTCGCTTGACGCTGCTG,-0.101 z-score
GCCTAGCACTTAGATCTCAGTTTCGAGTAGTGCTAGGTCTTGATTCGCTTGACGCTGCTG,4.3 z-score
GCCTAGCACGACGGACTGCTTCTCATGACGTGCTAGGTCTTGATTCGCTTGACGCTGCTG,-0.264 z-score

# Mixed results
Substance,target,assay,system,conditions,how to read,quantity,result
"PhoQ, residues 284 288 289 292 302 303 SLCLSL","PhoP, residues 12 14 15 18 19 SGWQI (Escherichia coli, UniProt P23836)","Sort-seq, refers to: YFP reporter",E. coli,"PhoQ-PhoP variant library, with: 10 µM Mg2+","relative to: high Mg2+ state, higher = stronger signaling",fold induction,4.89

# Excerpt of the above (sample 2):
Strand,E-score
CGCTAAGA,0.164
